Assay results gathered from unrelated publications.
Numbered parts are unrelated; each lists some results of a single study. Several values in a cell are separate wells, animals, samples, runs or records.

Sample 1 — concentration: 1 µM; baseline: DMSO
SMILES: Cc1ncc(-c2cc(Cl)ccc2F)cc1-n1c(=O)n(CC(N)=O)c2ccccc21
cell line	setting	viability [%]
sample B colorectal tumour organoid	replicate 1	129
sample C colorectal tumour organoid	replicate 1	106
sample B colorectal tumour organoid	replicate 2	98.5
sample BA colorectal tumour organoid		122
colorectal tumour organoids		108
sample C colorectal tumour organoid	replicate 2	106

Sample 2 — host: C57BL/6 CES1-/- mice, EL4 tumour; route: subcutaneous; dose: 0.3 mg/kg/day DON equivalent; time: 5 days
SMILES: CC(=O)N[C@@H](Cc1c[nH]c2ccccc12)C(=O)N[C@@H](CCC(=O)C=[N+]=[N-])C(=O)OC(C)C
technique	refers to	cell line	sample	setting	reading	metabolite peak intensity
UPLC-MS/MS metabolomics	oxidised glutathione (GSSG)		EL4 tumour	normalised to tissue mass		5.51e+07 a.u. and 3.59e+07 a.u. and 5.33e+07 a.u. and 3.6e+07 a.u. and 6.32e+07 a.u. and 6.12e+07 a.u.
UPLC-MS/MS metabolomics	gamma-glutamylglutamine		EL4 tumour	normalised to tissue mass		3.66e+06 a.u. and 5.36e+06 a.u. and 5.02e+06 a.u. and 4.71e+06 a.u. and 5.07e+06 a.u. and 4.92e+06 a.u.
LC-MS/MS metabolomics	3-phosphoglycerate		EL4 tumour	normalised to tissue mass	higher = more metabolite	329000 a.u. and 510000 a.u. and 815000 a.u. and 718000 a.u. and 536000 a.u. and 490000 a.u.
UPLC-MS/MS	gulonate	EL4	tumour	normalised to tissue mass	higher = more metabolite	5.96e+07 a.u. and 8.44e+07 a.u. and 7.68e+07 a.u. and 6.41e+07 a.u. and 4.94e+07 a.u. and 7.9e+07 a.u.
UPLC-MS/MS metabolomics	gamma-glutamylthreonine		EL4 tumour	normalised to tissue mass		961000 a.u. and 665000 a.u. and 1.13e+06 a.u. and 1.24e+06 a.u. and 1.03e+06 a.u.
UPLC-MS/MS	histidine	EL4	tumour	normalised to tissue mass	higher = more metabolite	1.66e+07 a.u. and 1.77e+07 a.u. and 1.87e+07 a.u. and 1.31e+07 a.u. and 1.41e+07 a.u. and 1.18e+07 a.u.
LC-MS/MS metabolomics	mesaconate		EL4 tumour		higher = more metabolite	1.37e+07 a.u. and 1.19e+07 a.u. and 6.39e+06 a.u. and 5.04e+06 a.u. and 7.81e+06 a.u. and 4.98e+06 a.u.
LC-MS/MS metabolomics	prolylglycine		EL4 tumour		higher = more metabolite	6.27e+07 a.u. and 3.82e+07 a.u. and 3.74e+07 a.u. and 5.7e+07 a.u. and 5.24e+07 a.u. and 5.73e+07 a.u.
UPLC-MS/MS	isovalerylcarnitine	EL4	tumour	normalised to tissue mass	higher = more metabolite	2.25e+07 a.u. and 8.42e+06 a.u. and 1.66e+07 a.u. and 1.22e+07 a.u. and 1.96e+07 a.u. and 2.61e+07 a.u.
UPLC-MS/MS metabolomics	N2,N2-dimethylguanosine		EL4 tumour	normalised to tissue mass	higher = more metabolite	645000 a.u. and 415000 a.u. and 613000 a.u. and 801000 a.u. and 530000 a.u. and 713000 a.u.
UPLC-MS/MS metabolomics	gamma-glutamylleucine		EL4 tumour	normalised to tissue mass		1.57e+06 a.u. and 1.91e+06 a.u. and 1.74e+06 a.u. and 1.85e+06 a.u. and 971000 a.u. and 1.79e+06 a.u.
UPLC-MS/MS	homocysteine	EL4	tumour	normalised to tissue mass	higher = more metabolite	322000 a.u. and 379000 a.u. and 246000 a.u. and 154000 a.u.

Sample 3 — effect on: enzyme activity; mode: inhibitor; concentration: 0.5 µM; baseline: control
Target: Cyclin-dependent kinase 6, with cyclin D1 (CDK6, Homo sapiens, UniProt Q00534)
UniProt Q00534, sequence (whole entry, looked up): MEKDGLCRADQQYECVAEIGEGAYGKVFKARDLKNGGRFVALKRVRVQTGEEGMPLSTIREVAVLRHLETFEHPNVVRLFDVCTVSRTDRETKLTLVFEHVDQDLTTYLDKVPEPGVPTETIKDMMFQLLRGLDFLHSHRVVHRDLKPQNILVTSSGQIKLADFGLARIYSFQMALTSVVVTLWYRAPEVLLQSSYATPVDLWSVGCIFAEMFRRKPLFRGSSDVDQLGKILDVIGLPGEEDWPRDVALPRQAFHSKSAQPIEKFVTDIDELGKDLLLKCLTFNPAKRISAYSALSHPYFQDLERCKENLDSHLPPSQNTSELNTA
Structure (SMILES)	remaining activity
Nc1nccc(-c2c(-c3ccc(F)cc3)ncn2C2CCNCC2)n1	101%
Cc1ccc(NC2=CC(=O)c3sc(C)nc3C2=O)cc1	101%
Oc1ccc(Nc2nc(-c3ccc(Cl)cc3)cs2)cc1	101%
CC[n+]1c(/C=C/N(C)c2ccccc2)n(-c2ccccc2)c2ccc(-c3nc4ccccc4s3)cc21	103%
NC(=O)c1ccc(N(C(N)=O)c2c(F)cccc2F)nc1-c1ccc(F)cc1F	95.1%
Nc1ncnc2c1cnn2-c1ccccc1	94.7%
COc1ccc(S(=O)(=O)N(CCO)c2ccccc2CN(C)CC=Cc2ccc(Cl)cc2)cc1	92.7%
CC(C)(C)n1nc(Cc2cccc3ccccc23)c2c(N)ncnc21	98.6%
Nc1nc(Nc2ccc(S(N)(=O)=O)cc2)nn1C(=O)c1c(F)cccc1F	17.1%
CC#CC(=O)Nc1cc2c(Nc3ccc(F)c(Cl)c3)ncnc2cn1	99%
CC(=O)c1ccc(N2CCOCC2)cc1O	99.3%
Cc1cncc2cccc(S(=O)(=O)N3CCCN(C(=O)CN)C[C@@H]3C)c12	99.8%
O=S(=O)(NCCNC/C=C/c1ccc(Br)cc1)c1cccc2cnccc12	77.9%
Fc1ccc(-c2nc3n(c2-c2ccncc2)CCS3)cc1	97%
N#CC(=C(N)Sc1ccc(N)cc1)c1ccccc1C(F)(F)F	98%
COc1cc(Nc2c(C#N)cnc3cc(OCCCN4CCN(C)CC4)c(OC)cc23)c(Cl)cc1Cl	99.4%
O=C1Cc2c([nH]c3ccc([N+](=O)[O-])cc23)-c2ccccc2N1	16.8%
O=C1NC(=O)C(c2c[nH]c3ccccc23)=C1c1c[nH]c2ccccc12	88.7%
CCc1[nH]c(-c2ccc(OC)cc2)nc1-c1ccncc1	101%
CCCC(=O)Oc1ccc2[nH]c(C(=O)c3cc4ccccc4[nH]3)cc2c1	92.7%
CSc1nc(-c2ccnc(N[C@@H](C)c3ccccc3)c2)c(-c2ccc(F)cc2)[nH]1 (racemic)	90.9%
Cc1cc(Nc2nc(-c3ccccc3)nc3ccccc23)n[nH]1	85.5%

Sample 4 — cell line: mouse MPNST tumor cells; technique: high-content immunofluorescence imaging; refers to: nuclear SOX9; concentration: 10 µM; time: 12 h; setting: mean of 2 replicates; baseline: DMSO control; reading: higher = more nuclear SOX9
SMILES	nuclear SOX9 intensity
O=C(CN1CCN(C(=O)c2ccco2)CC1)Nc1cc(C(F)(F)F)ccc1Cl	88.5 % of DMSO
O=C(O)CCN(O)C(=O)CCCCCCCCC1CC1	94.2 % of DMSO
NS(=O)(=O)c1ccc(-n2nc(C(F)(F)F)cc2-c2ccc(Cl)cc2)cc1	137 % of DMSO
CN1[C@@H]2CC[C@H]1C[C@@H](OC(c1ccccc1)c1ccccc1)C2	122 % of DMSO
O=C(O)c1ccccc1C(=O)Nc1ccc(-c2ccccc2)cc1	95.1 % of DMSO
CS(=O)(=O)OCCCCOS(C)(=O)=O	137 % of DMSO and 100 % of DMSO
CC1(C)O[C@@H]2[C@@H](CO[C@@]3(COS(N)(=O)=O)OC(C)(C)O[C@@H]23)O1	95.7 % of DMSO and 91.9 % of DMSO and 86.3 % of DMSO
COc1ccc(C2CC(c3ccccc3)=NN2c2ccc(S(N)(=O)=O)cc2)cc1 (stereo not shown)	110 % of DMSO
CC(=O)N1CCN(c2ccc(OCC3COC(Cn4ccnc4)(c4ccc(Cl)cc4Cl)O3)cc2)CC1 (stereo not shown)	134 % of DMSO
C[C@H]1[C@@H](O)O[C@@H]2O[C@@]3(C)CC[C@H]4[C@H](C)CC[C@@H]1[C@@]24OO3	97.9 % of DMSO
CN(Cc1ccc(C(C)(C)C)cc1)Cc1cccc2ccccc12	108 % of DMSO
Cc1nnc2c3ccccc3c(N[C@@H](C)[C@H](c3ccccc3)N(C)C)nn12	114 % of DMSO and 105 % of DMSO
CCN(c1ccccc1)c1cc(=NC)n(C)c(C)n1	92 % of DMSO
COc1cccc(OC)c1-c1cc(C(=O)NC2(C(=O)O)C3CC4CC(C3)CC2C4)nn1-c1ccnc2cc(Cl)ccc12 (stereo not shown)	98.4 % of DMSO
CN1CCC(=C2c3ccccc3CCc3sccc32)CC1	174 % of DMSO
Nc1nc(SCCc2ccc(S(=O)(=O)O)cc2)nc2c1ncn2[C@@H]1O[C@H](CO)[C@@H](O)[C@@H]1O	88.4 % of DMSO
Nc1cccc2c1CN(C1CCC(=O)NC1=O)C2=O (stereo not shown)	121 % of DMSO
N#Cc1cc(F)c(C(=O)Nc2ccnc(NC(=O)[C@H]3C[C@H]3F)c2)c(Cl)c1	114 % of DMSO

Excerpt of the above (sample 4):
SMILES	nuclear SOX9 intensity
CS(=O)(=O)OCCCCOS(C)(=O)=O	137 % of DMSO and 100 % of DMSO
CC1(C)O[C@@H]2[C@@H](CO[C@@]3(COS(N)(=O)=O)OC(C)(C)O[C@@H]23)O1	95.7 % of DMSO and 91.9 % of DMSO and 86.3 % of DMSO
COc1ccc(C2CC(c3ccccc3)=NN2c2ccc(S(N)(=O)=O)cc2)cc1 (stereo not shown)	110 % of DMSO
CC(=O)N1CCN(c2ccc(OCC3COC(Cn4ccnc4)(c4ccc(Cl)cc4Cl)O3)cc2)CC1 (stereo not shown)	134 % of DMSO
C[C@H]1[C@@H](O)O[C@@H]2O[C@@]3(C)CC[C@H]4[C@H](C)CC[C@@H]1[C@@]24OO3	97.9 % of DMSO
CN(Cc1ccc(C(C)(C)C)cc1)Cc1cccc2ccccc12	108 % of DMSO
Cc1nnc2c3ccccc3c(N[C@@H](C)[C@H](c3ccccc3)N(C)C)nn12	114 % of DMSO and 105 % of DMSO
CCN(c1ccccc1)c1cc(=NC)n(C)c(C)n1	92 % of DMSO
COc1cccc(OC)c1-c1cc(C(=O)NC2(C(=O)O)C3CC4CC(C3)CC2C4)nn1-c1ccnc2cc(Cl)ccc12 (stereo not shown)	98.4 % of DMSO
CN1CCC(=C2c3ccccc3CCc3sccc32)CC1	174 % of DMSO
